Published values from different studies.
Every numbered part comes from another study and shows a few of its results, in no order. Changes are numbered by the printed parent chain.

Set 1
Partner: ARF20 484-590 (Arabidopsis thaliana, UniProt Q9C7I9)
Method: two-hybrid
Reference: out of 4 tests
Direction: higher = firmer interaction
B1: IAA28 (Arabidopsis thaliana, UniProt Q9XFM0); chain MEEEKRLELRLAPPCHQFTSNNNINGSKQKSSTKETSFLSNNRVEVAPVVGWPPVRSSRRNLTAQLKEEMKKKESDEEKELYVKINMEGVPIGRKVNLSAYNNYQQLSHAVDQLFSKKDSWDLNRQYTLVYEDTEGDKVLVGDVPWEMFVSTVKRLHVLKTSHAFSLSPRKHGKE
B2: IAA15 (Arabidopsis thaliana, UniProt Q9C966); chain MSPEEYVRVWPDSGDLGGTELTLALPGTPTNASEGPKKFGNKRRFLETVDLKLGEAHENNYISSMVTNDQLVGWPPVATARKTVRRKYVKVALDGAAYLRKVDLGMYDCYGQLFTALENMFQGIITICRVTELERKGEFVATYEDKDGDLMLVGDVPWMMFVESCKRMRLMKTGDAIGL
B3: IAA31 (Arabidopsis thaliana, UniProt Q8H174); chain MEVSNSCSSFSSSSVDSTKPSPSESSVNLSLSLTFPSTSPQREARQDWPPIKSRLRDTLKGRRLLRRGDDTSLFVKVYMEGVPIGRKLDLCVFSGYESLLENLSHMFDTSIICGNRDRKHHVLTYEDKDGDWMMVGDIPWDMFLETVRRLKITRPERY
B4: ARF8 699-811 (Arabidopsis thaliana, UniProt Q9FGV1); chain NSSNQTKNFVKVYKSGSVGRSLDISRFSSYHELREELGKMFAIEGLLEDPLRSGWQLVFVDKENDILLLGDDPWESFVNNVWYIKILSPEDVHQMGDHGEGSGGLFPQNPTHL
B5: IAA18 (Arabidopsis thaliana, UniProt O24408); chain MEGYSRNGEISPKLLDLMIPQERRNWFHDEKNSVFKTEEKKLELKLGPPGEEDDDESMIRHMKKEPKDKSILSLAGKYFSPSSTKTTSHKRTAPGPVVGWPPVRSFRKNLASGSSSKLGNDSTTSNGVTLKNQKCDAAAKTTEPKRQGGMFVKINMYGVPIGRKVDLSAHNSYEQLSFTVDKLFRGLLAAQRDFPSSIEDEKPITGLLDGNGEYTLTYEDNEGDKMLVGDVPWQMFVSSVKRLRVIKTSEISSALTYGNGKQEKMRR
B6: IAA33 (Arabidopsis thaliana, UniProt Q9FKM7); chain MNSFEPQSQDSLQRRFHQDNSTTQQPRDTTTPFIPKPASKNHNNSNSSSGAAGRSFQGFGLNVEDDLVSSVVPPVTVVLEGRSICQRISLDKHGSYQSLASALRQMFVDGADSTDDLDLSNAIPGHLIAYEDMENDLLLAGDLTWKDFVRVAKRIRILPVKGNTRQVKRNE
B7: ARF14 497-605 (Arabidopsis thaliana, UniProt Q9LQE8); chain SPTEIQSKQFSSTRTCTKVQMQGVTIGRAVDLSVLNGYDQLILELEKLFDLKGQLQARNQWEIAFTNNEEDKMLVGEDPWPEFCNMVKKIFIYSKEEVKNLKSRKSLSS
B8: IAA13 (Arabidopsis thaliana, UniProt Q38831); chain MITELEMGKGESELELGLGLSLGGGTAAKIGKSGGGGAWGERGRLLTAKDFPSVGSKRAADSASHAGSSPPRSSSQVVGWPPIGSHRMNSLVNNQATKSAREEEEAGKKKVKDDEPKDVTKKVNGKVQVGFIKVNMDGVAIGRKVDLNAHSSYENLAQTLEDMFFRTNPGTVGLTSQFTKPLRLLDGSSEFVLTYEDKEGDWMLVGDVPWRMFINSVKRLRVMKTSEANGLAARNQEPNERQRKQPV
Residues (chain): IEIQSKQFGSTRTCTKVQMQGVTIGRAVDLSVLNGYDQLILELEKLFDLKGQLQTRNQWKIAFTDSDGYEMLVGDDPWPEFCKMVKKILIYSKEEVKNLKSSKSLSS
`B1 (IAA28)` has a positive tests of 0.
For `B2 (IAA15)`, the positive tests was 2.
`B3 (IAA31)` gave a positive tests of 3.
For `B4 (ARF8 699-811)`, the positive tests was 0.
For `B5 (IAA18)`, the positive tests was 0.
The positive tests of `B6 (IAA33)` is reported as 3.
`B7 (ARF14 497-605)` gave a positive tests of 0.
With `B8 (IAA13)` the positive tests was 0.

Set 2
Target: Fragile X messenger ribonucleoprotein 1, C-terminal low-complexity region (Fmr1, Mus musculus, UniProt P35922)
Method: RNA Bind-n-Seq
Molecule type: RNA
Sample: in vitro
Tested at: 200 nM
Setting: whole 134-nt RNA, ends assumed
Together with: 150 mM KCl
Reference: input library
Direction: higher = stronger binding
The log2 enrichment of `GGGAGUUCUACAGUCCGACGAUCAAGUCCUGUGCUACACAUCGUAUGUACCGAAUCGGUUUGGAAAAAGGAAAAAAAGGAAAGUAUUAUGUUACGCCGUUCGGAUCUGCACUUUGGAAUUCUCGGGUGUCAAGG` is reported as -0.786.
`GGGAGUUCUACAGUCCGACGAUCAGUCCUGUGCUACACAUCGUAUGUACCGAAUCGGGAAAAAAAGGGUGGGUUUUUGGGAAAGUAUUAUGUUACGCCGUUCGGAUCUGCACUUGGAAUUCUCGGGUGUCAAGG` has a log2 enrichment of 0.51.
`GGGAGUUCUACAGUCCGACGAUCUAACUUUAGAGGAGGAUCUGAUGGAUAUGGCAGUGGACGUGGAUUUGGUGAUGGCUAUAAUGGGUAUGGAGGAGGACCUGGAGGUGGCAAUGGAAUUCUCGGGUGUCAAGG` gave a log2 enrichment of 0.224.
`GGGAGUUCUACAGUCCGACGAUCGCAGGAAGUAAAAACAAAUGGAAAUGCUUCGGAUAGUGUCAGGGGUGGGGGUUGCUAAGGAAAGGGUGGGAUGGGAGUGGGUAAAGAGUUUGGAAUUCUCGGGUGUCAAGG` has a log2 enrichment of 0.622.
`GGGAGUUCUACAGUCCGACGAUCAGUCCUGUGCUACACAUCGUAUGUACCGAAUCGGAAAAAGGAAAAAAAGGUUUUUGGAAAGUAUUAUGUUACGCCGUUCGGAUCUGCACUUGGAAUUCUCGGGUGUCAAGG` has a log2 enrichment of -1.42.
For `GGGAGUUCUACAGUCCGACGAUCUGGGAGGUGGAUUUUGUUUAUUUUUUUAGCUCAUUCCCAGGGGUGGGAAUUUUUUUUUAAUAUGUGUCAUGAAUAAAGUUGUUUUUGAAAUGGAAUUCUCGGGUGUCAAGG`, the log2 enrichment was -0.00764.
`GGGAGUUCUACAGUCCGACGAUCUUUCUCCAUUGCAGGAAGUUGGCAGUAUCAUCGGAAAGGUAAGACAAUUUCACUUCAACUUCAAUUACCAUUUAGUAAUUCUGGAUUGAAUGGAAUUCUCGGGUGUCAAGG` has a log2 enrichment of -0.939.
`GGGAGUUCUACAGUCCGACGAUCUGGGAGGUGGAUUUUGUUUAUUUUUUUAGCUCAUUUCCAGGGGUGGGAAUUUUUUUUUAAUAUGUGUCAUGAAUAAAAUUGUUUUUGAAAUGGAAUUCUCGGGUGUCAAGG` gave a log2 enrichment of 0.14.

Mixed results
P1: viral docking peptide; KGVKRKLFAEDSS; partner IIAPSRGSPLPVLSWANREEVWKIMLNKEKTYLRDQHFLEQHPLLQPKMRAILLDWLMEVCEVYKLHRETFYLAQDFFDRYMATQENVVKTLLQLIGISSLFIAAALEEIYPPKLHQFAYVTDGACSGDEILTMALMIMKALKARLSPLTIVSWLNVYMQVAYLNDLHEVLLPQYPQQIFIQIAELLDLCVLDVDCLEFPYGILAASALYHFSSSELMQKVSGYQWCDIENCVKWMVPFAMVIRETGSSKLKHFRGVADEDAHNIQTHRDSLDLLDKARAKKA
For `PDIA3 (Homo sapiens, UniProt P30101)`, cross-linked residues read “E372 to E729” (PCDHB16 (Homo sapiens, UniProt Q9NRJ7); cross-linking MS; cell fractions; together with: DHSO).
For `P1 S12V`, “normalised enrichment score” read 7.74 (CCNE1, cyclin fold, Cln2 fusion (human); yeast growth competition, sequencing; yeast; strong parent motif; reference: not given, higher = stronger binding).
Under interaction screen, `FOXRED1 (Homo sapiens, UniProt Q96CU9)` is recorded as “cross-linked” (DMAC2 (Homo sapiens, UniProt Q9NW81); cross-linking MS; hits only).

Some of these lines once more (set 2):
`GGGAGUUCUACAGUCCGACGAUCAGUCCUGUGCUACACAUCGUAUGUACCGAAUCGGAAAAAGGAAAAAAAGGUUUUUGGAAAGUAUUAUGUUACGCCGUUCGGAUCUGCACUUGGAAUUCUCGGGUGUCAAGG` has a log2 enrichment of -1.42.
`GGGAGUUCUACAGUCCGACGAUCUUUCUCCAUUGCAGGAAGUUGGCAGUAUCAUCGGAAAGGUAAGACAAUUUCACUUCAACUUCAAUUACCAUUUAGUAAUUCUGGAUUGAAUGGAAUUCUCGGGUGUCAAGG` has a log2 enrichment of -0.939.
